Measured values of several laboratories.
Every numbered part comes from another study and shows a few of its results, in no order. Changes are numbered by the printed parent chain.

Sample 1 — technique: universal PBM; molecule type: double-stranded DNA, one strand shown; medium: in vitro; concentration: not given; direction: higher = stronger binding; endpoint: E-score
Target: Sal-like protein 4, full length isoform B (SALL4, Homo sapiens, UniProt Q9UJQ4-2, residues 1-616)
Notes: 8-mer, flanks averaged, mean of replicates
Residues (chain): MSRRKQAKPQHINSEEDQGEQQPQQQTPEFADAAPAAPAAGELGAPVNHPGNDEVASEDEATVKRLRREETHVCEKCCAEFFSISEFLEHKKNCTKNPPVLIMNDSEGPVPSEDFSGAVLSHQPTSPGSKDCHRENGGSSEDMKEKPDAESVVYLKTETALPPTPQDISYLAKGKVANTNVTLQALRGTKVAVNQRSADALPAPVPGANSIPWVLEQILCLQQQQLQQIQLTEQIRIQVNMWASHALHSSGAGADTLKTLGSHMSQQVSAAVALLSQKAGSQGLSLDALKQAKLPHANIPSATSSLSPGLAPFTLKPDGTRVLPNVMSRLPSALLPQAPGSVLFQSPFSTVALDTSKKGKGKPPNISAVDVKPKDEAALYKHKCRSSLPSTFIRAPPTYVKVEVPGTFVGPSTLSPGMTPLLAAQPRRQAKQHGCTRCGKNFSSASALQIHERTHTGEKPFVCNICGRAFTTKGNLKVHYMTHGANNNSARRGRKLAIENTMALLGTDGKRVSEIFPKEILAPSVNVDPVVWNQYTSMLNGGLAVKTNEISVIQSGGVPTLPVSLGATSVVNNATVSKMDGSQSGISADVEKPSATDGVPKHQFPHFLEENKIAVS
TGACAGAA: 0.122
ATCGTGGG: -0.0272
AGTTGCAT: 0.109
ATCCGGAC: -0.259
CCCCACCG: -0.234
CGTTAGCC: -0.0816
ATTACCAA: 0.219
CGTATGAC: 0.213
CAAACTGA: -0.0671
CTAATTTC: 0.218
ACAATCGT: 0.217
ATACAAGG: 0.162
GAGTGTGA: 0.0348
ACGCTTGG: -0.0858
CCTCAAGA: 0.0699
AGGTTCTC: -0.16

Sample 2 — technique: EMSA with sequencing; molecule type: double-stranded DNA, one strand shown; medium: in vitro; concentration: 10 and 20 nM; reference: negative control set to 0; direction: higher = stronger binding; endpoint: normalised bound fraction
Target: Hepatocyte nuclear factor 3-alpha (Foxa1, Mus musculus, UniProt P35582, residues 1-468, full length assumed)
Notes: whole designed probe, mean of two concentrations, ends assumed
Shared flanks, not repeated: GTGAGCGGTGCCCATTGATGGGGAAC … TTTCACTGGGATCGTGGGGAC
Construct (chain): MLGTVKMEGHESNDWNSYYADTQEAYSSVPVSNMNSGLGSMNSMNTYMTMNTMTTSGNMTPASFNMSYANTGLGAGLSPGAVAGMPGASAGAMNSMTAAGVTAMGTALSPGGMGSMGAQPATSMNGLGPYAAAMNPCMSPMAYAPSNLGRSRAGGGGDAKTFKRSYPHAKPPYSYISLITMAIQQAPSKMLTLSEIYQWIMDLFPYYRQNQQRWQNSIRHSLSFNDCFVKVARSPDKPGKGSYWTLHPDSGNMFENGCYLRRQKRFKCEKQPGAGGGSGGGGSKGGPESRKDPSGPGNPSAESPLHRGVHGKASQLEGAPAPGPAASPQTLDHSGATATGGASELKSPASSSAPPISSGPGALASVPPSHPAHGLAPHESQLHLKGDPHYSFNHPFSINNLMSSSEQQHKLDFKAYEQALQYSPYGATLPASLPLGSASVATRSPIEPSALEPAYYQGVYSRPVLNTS
TCCACAGTAGAAACGAAGGAGATGACAGATACCCCGGCACCAAAACTGACACCAGGTTTTTGTTGCTTCTTCCACTATATAATGGAGAAGTTCTGTTTACTCTATACTGTTAACATTGGCTTAAGTTGTGCAACGGAAACCCAAGAAACTGAATCACATCAAAGGTATGTCAGAGGTATGTGAACCAGAGCAA: 0.369 ratio
ACATTCTTTTTGTAATTATTCCAGGTCAAGATAGTGGCCAAAGAGGAAGTTATAAAGCAGACTAGGAAATTCTCCTAAATATATCTCCAACAGAGTAATCTAGAGATTAGGAAACTTGTCCTTCATTCAATTACACCTGGTAAACTTTTTACATTTCCCATTCTATTTTTTGCCTGTGATGTCTAAGTTGAAT: -0.072 ratio
GAATTATTTCATTATACAAATATAAATGTCATTCTTTAATTTTAGAAGAAATCATGATATGTCATTCTATTGAGTGCTAACTAAAAGTTCCCTTTGTTTACTTAGCTTTCTCTTAGTCATAAGAAAGAAGAAGATCTCTTGCGTGAAAACAGCGTGTTGCAGGAAGAAATTGCCATGCTAAGACTGGAACTAG: 0.51 ratio
AGCAAGGCTTTAAAAGTGAGGTCTTTCAGTTTAGATGCAAAAAGGGTGGTTCTGTTGAGTCAAGTTTCGTAATCCCAGCTATTTCACTACATAGTAAACACCTAGAATGAGGTAGCTGGAGTGCAAATCTAAATGGCTTGTGACAGTTAAGGAAGTACATAGGCAACAGTTACTGGTTTTCTTGATGCAGCTG: -0.00592 ratio
ATCTTCCCCCTCTTCCTTGCCCCACCAGCTCACCTTCCCGGGTATCTGCAAATAAGTATTTATTTTCAAGCCGGCATTCGTTAACCCTCTTCTGGCGCAAACTGCCAGAGCAAACAGATGAATCATGGTCCTTTGGCGACGCCAGGCTCCGGGAGAGCAAAGCACCGTGTCAGGGCCATGATCCGGGGTGGCC: 0.246 ratio
GTGGGTAACTGAGAGAAAGCCATAAAGGTAAAGTGGCATGTTAATCACATCATATCGATGATACATACTATTCATATGATTTATGATTATTGAAGATGGCCTTGATGACCTTGCTGAGATAGTATTTGTCAGGTTTCTCCACTGTAAAACTCCCCCATTTCTATATCGTACTCTTTGAAGGAAGTGACAATGT: -0.0502 ratio
TTTTAAAAGGTTTTTAAAAGAATAAACAATTTTCTTTAAAAAATCATGCTACTGTAACATGATTTTACATAAAGACTGTACATATTGTAACAATGTAATCTAAGAATGATTTACTCTAATGGAAGCCAAGGGTGACAATAAAATCCTCTAAGCTGCAAATGGTGAAGTTATAGGGCCCAACCTGAAAGAGGGG: 0.0921 ratio
GTGCTTTAAAAACATTTTAAAAGGAAAGAAAAACTAAAATCACCAATTTTGTCACCATTCAAATGTCATTGTGTTAATAATTTGATCTGTTTCTTGTTTACTTTTTCCTCTATTGAGGGTTTGTTGTTGTTGTTGTTGTTGTTGTTGTTGTTTGTTTTTGCCATAGTTGTAGTCAGTCATTCTGTATACATAA: 0.47 ratio

Sample 3 — technique: Sort-seq; item: YFP reporter; medium: E. coli; notes: PhoQ-PhoP variant library; added: 10 µM Mg2+; reference: high Mg2+ state; direction: higher = stronger signaling; endpoint: fold induction
Molecule: PhoQ, residues 284 288 289 292 302 303 TLSLKA
PhoP, residues 12 14 15 18 19 NFFVT (Escherichia coli, UniProt P23836): 2.18
PhoP, residues 12 14 15 18 19 LHHYF (Escherichia coli, UniProt P23836): 1.68
PhoP, residues 12 14 15 18 19 TPWTL (Escherichia coli, UniProt P23836): 97.9
PhoP, residues 12 14 15 18 19 VGHWL (Escherichia coli, UniProt P23836): 0.648

Sample 4 — technique: protein-binding microarray; molecule type: double-stranded DNA, one strand shown; medium: in vitro; concentration: 940 nM top; notes: 60-bp whole probe; added: salmon DNA 0.4 mg/ml; reference: random background probes; direction: higher = stronger binding; endpoint: fitted relative affinity; shared flanks, not repeated: GCCTAGCAC … GTCTTGATTCGCTTGACGCTGCTG
Target: Interferon regulatory factor 5, full length, phosphomimetic (IRF5, Homo sapiens, UniProt Q13568-2, residues 1-514, S451D/S453D/S456D/S462D)
TTAGGTTTCCTACTTCTTTAGTGCTAG: 1.03 z-score
TCATTTTTATTTTCTGAACTGTGCTAG: 1.4 z-score
GACGGTAACGGGTTTCGGGACGTGCTA: 2.28 z-score
ATCACTTTCCACTTGTCTTTGTGCTAG: 1.84 z-score
GATGGACTGGACTATCGGGACGTGCTA: -0.128 z-score
TTAGGTATCGGCCTGGGTTAGTGCTAG: 5.65 z-score
GACGAACTGAGTTTCGAAACGTGCTAG: 4.41 z-score
CAGAGCATGGATCTGGGAACGTGCTAG: -0.85 z-score
GACGGTATCCACTATCGGGACGTGCTA: 0.578 z-score
AGGAAGACATCAAAGAGAGCGTGCTAG: -0.646 z-score
GACCGTATCGGGTTTCGGGACGTGCTA: 3.51 z-score
TCTAATATTCATTTTATTCAGTGCTAG: 0.529 z-score
GACGATTTCGGGACTAGAGACGTGCTA: -0.0473 z-score
GACGGTATCGGGACTGAGGACGTGCTA: 2.94 z-score
GAAGATATCGGGACTGGAGACGTGCTA: -0.378 z-score
TCATTTGTCCCTATTTAACTGTGCTAG: 1.44 z-score
CCCACTTTCACTTCTCCCTTGTGCTAG: 5.49 z-score

Sample 5 — technique: DHFR PCA, deep sequencing; medium: yeast; added: (+)-ABA 58 µM; reference: wild-type fitted maximum; direction: higher = stronger binding; endpoint: relative binding score
Target: ABI1, truncated, D143A, DHFR fusion (Arabidopsis thaliana)
Notes: methotrexate growth selection, single substitutions
Parent: PYL1, truncated, DHFR fusion (Arabidopsis thaliana); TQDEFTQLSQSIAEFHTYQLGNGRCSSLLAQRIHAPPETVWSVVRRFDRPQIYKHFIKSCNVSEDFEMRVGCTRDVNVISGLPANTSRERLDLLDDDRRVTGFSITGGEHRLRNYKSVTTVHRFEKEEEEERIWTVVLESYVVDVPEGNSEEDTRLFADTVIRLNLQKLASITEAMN; partner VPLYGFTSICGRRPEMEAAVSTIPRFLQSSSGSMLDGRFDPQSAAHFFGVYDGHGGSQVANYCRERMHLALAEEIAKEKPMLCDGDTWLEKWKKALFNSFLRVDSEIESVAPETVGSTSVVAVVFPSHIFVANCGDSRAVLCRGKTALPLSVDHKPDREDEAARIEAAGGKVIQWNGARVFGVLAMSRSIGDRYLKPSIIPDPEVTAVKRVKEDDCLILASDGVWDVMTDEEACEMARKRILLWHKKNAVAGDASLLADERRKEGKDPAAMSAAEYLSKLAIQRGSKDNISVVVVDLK
T1F: 85.6%
Y115T: 0.914%
V70I: 82.1%
N61C: 82.8%
V161N: -6.89%
R49P: 13.7%
H122N: 47.8%
D75A: 78.6%
R123W: 70.2%
S26W: 73.8%
I105L: 19.1%
K58P: 11.6%
T106Y: 88.6%

For quick reference, copied from above (sample 1):
GAGTGTGA: 0.0348
ACGCTTGG: -0.0858
CCTCAAGA: 0.0699
